Measurements gathered from unrelated publications.
Numbered parts are unrelated; each lists some results of a single study. Positions count from the first letter of the parent shown.

Set 1
Target: Sal-like protein 4, full length isoform A (SALL4, Homo sapiens, UniProt Q9UJQ4, residues 1-1053)
Sequence of UniProt Q9UJQ4 (whole entry, looked up): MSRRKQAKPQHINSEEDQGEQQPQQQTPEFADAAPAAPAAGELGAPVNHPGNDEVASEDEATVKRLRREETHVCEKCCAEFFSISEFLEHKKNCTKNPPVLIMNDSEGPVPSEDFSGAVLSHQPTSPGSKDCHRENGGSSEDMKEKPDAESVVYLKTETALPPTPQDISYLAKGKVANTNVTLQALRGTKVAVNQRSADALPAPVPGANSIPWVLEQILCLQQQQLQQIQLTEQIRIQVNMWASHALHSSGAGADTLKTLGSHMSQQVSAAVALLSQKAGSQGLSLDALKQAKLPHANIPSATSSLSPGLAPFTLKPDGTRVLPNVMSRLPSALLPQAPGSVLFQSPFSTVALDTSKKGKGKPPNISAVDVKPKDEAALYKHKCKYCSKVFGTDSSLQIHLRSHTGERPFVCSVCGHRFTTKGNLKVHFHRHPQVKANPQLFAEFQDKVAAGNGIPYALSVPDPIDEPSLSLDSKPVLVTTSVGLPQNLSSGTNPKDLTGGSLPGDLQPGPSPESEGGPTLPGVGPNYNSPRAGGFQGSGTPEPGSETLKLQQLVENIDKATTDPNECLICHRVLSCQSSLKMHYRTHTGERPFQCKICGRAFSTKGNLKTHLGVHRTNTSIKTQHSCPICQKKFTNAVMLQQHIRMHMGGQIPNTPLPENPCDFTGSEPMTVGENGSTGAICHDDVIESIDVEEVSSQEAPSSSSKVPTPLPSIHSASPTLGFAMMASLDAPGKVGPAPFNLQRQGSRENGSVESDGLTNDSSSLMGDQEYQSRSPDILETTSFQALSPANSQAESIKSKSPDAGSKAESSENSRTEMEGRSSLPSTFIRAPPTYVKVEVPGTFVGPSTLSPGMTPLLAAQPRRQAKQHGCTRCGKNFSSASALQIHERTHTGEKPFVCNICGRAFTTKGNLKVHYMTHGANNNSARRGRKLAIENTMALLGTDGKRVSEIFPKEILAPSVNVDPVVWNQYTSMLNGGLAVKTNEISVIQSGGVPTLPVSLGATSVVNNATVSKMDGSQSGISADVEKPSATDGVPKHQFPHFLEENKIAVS
Method: universal PBM
Form: double-stranded DNA, one strand shown
Matrix: in vitro
Concentration: 600 nM
Setting: 8-mer, flanks averaged, mean of replicates
Direction: higher = stronger binding
Quantity: E-score
Sequence = CAGGCGGG; result = -0.409
Sequence = AAGCTGGT; result = -0.0583
Sequence = CCCTATAA; result = 0.16
Sequence = GGGATTCA; result = -0.184
Sequence = CGTGAGGA; result = -0.157
Sequence = CAAACAGA; result = 0.0135
Sequence = TTCGGAAA; result = 0.0209

Set 2
Target: CCNB2, cyclin fold, Cln2 fusion (human)
Method: yeast growth competition, sequencing
Matrix: yeast
Setting: weak parent motif
Reference: not given
Direction: higher = stronger binding
Quantity: normalised enrichment score
Starting sequence: RBL1 docking peptide (human); GSAKRRLFGEDPP
Change = GSFKRRLFGEDPP [A3F]; result = 0.881
Change = GSAKWRLFGEDPP [R5W]; result = -0.357
Change = GSAKRRLFGFDPP [E10F]; result = 0.451
Change = GSATRRLFGEDPP [K4T]; result = 0.55
Change = GSAKRRLFGELPP [D11L]; result = 0.489
Change = GSAKRRLFGIDPP [E10I]; result = 0.589
Change = GSAKRGLFGEDPP [R6G]; result = -0.131
Change = GSAKRRLSGEDPP [F8S]; result = -0.168
Change = GSAWRRLFGEDPP [K4W]; result = -0.0229

Set 3
Target: ABI1, truncated, D143A, DHFR fusion (Arabidopsis thaliana)
Method: DHFR PCA, deep sequencing
Matrix: yeast
Setting: methotrexate growth selection, single substitutions
Added: (+)-ABA 0.39 µM
Reference: wild-type fitted maximum
Direction: higher = stronger binding
Quantity: relative binding score
Starting sequence: PYL1, truncated, DHFR fusion (Arabidopsis thaliana); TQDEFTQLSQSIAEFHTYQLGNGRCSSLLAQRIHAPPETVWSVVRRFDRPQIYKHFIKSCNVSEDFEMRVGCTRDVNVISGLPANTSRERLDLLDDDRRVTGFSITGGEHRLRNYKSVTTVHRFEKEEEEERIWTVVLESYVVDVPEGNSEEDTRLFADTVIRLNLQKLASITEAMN; partner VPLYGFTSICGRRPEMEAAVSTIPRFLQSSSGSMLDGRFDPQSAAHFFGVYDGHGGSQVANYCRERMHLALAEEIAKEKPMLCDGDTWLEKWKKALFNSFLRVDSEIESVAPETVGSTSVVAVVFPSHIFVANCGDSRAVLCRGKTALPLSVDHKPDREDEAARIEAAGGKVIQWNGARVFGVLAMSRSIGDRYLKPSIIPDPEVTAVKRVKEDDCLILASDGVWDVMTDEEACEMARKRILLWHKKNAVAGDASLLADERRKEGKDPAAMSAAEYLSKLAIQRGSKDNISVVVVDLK
Change = V70F; result = -12%
Change = H34V; result = 9.86%
Change = V70D; result = 6.98%
Change = S117I; result = -13.1%
Change = G81I; result = -3.57%

Single results of other studies
Molecule = PhoQ, residues 284 288 289 292 302 303 ALVSVA; target = PhoP, residues 12 14 15 18 19 LHTVM (Escherichia coli, UniProt P23836); assay = Sort-seq, item: YFP reporter; test system = E. coli; setting = PhoQ-PhoP variant library, added: 10 µM Mg2+; scale = reference: high Mg2+ state, higher = stronger signaling; quantity = fold induction; result = 16.6

Some of these lines once more (set 2):
Change = GSAKRRLFGFDPP [E10F]; result = 0.451
Change = GSATRRLFGEDPP [K4T]; result = 0.55
